Results of several laboratories.
Each line is one published result; not all experiments were run side by side. “And” joins repeats or separate records; there may be more than shown. Numbers after ± are the reported error.
Cell line: HEK-293T

SMILES	method	concentration	time	notes	baseline	measurement	value
Cc1ccc(S(=O)(=O)Oc2ccc(NC(=O)c3cnccn3)cc2)cc1	MTT	up to 100 µM				viability	not toxic
CC[S+]([O-])c1nc(-c2ccccc2)cc(C(F)(F)F)n1 (stereo not drawn)	ATPlite, CytoTox	up to 60 µM				toxicity	not toxic
CN(CCCNC(=O)CNc1cccc2c1C(=O)N(C1CCC(=O)NC1=O)C2=O)CCCC(=O)N1CCC[C@@H](n2nc(-c3ccc(Oc4ccccc4)cc3)c3c(N)ncnc32)C1 (stereo partly drawn)						intracellular accumulation coefficient	0.0037
COc1cc(/C=C/C=C2\SC(=S)NC2=O)cc(OC)c1O	CellTiter-Glo	20 µM	24 h	unit not given	untreated	viability	0.969 and 1.02
O=C(Nc1ccccc1OS(=O)(=O)c1ccc(F)cc1)c1ccc2ncccc2c1	MTT	up to 100 µM				viability	not toxic
CS(=O)(=O)C1(CNCc2cccc3cccnc23)CC1	bright-field microscopy	concentration not given	overnight			cytotoxicity	not toxic
CN(C/C=C/C(=O)N1CCC[C@@H](n2nc(-c3ccc(Oc4ccccc4)cc3)c3c(N)ncnc32)C1)CCCNC(=O)CNc1cccc2c1C(=O)N(C1CCC(=O)NC1=O)C2=O (stereo partly drawn)						intracellular accumulation coefficient	0.023
COc1ccc(C[C@H](NC(=O)[C@H](C)NC(=O)CN2CCOCC2)C(=O)N[C@@H](Cc2ccccc2)C(=O)C2(C)CO2)cc1 (stereo in doubt)	CCK-8	100 µM				viability	> 95%
CCCC(C(=O)O)c1c(C)nc2ccc(Cl)cc2c1-c1ccccc1 (stereo not drawn)						CC50	34.3 ± 4.19 µM

Excerpt of the above:
SMILES	method	concentration	time	notes	baseline	measurement	value
O=C(Nc1ccccc1OS(=O)(=O)c1ccc(F)cc1)c1ccc2ncccc2c1	MTT	up to 100 µM				viability	not toxic
